Measurements pooled from the literature.
Compare with care: the assays were run in different laboratories. Values joined by “and” are separate records of one study, mostly repeats; a detail may differ. ± gives the spread as reported.
Genome polyprotein NS3 helicase domain: Genome polyprotein, NS3 helicase domain (Hepatitis C virus genotype 1b, UniProt Q9WMX2)
DRD3: D(3) dopamine receptor (DRD3, Homo sapiens, UniProt P35462)
Glutamate receptor 2: Glutamate receptor 2 (Homo sapiens, UniProt P42262)
KCNQ3/KCNQ2: Voltage-gated potassium channel, KQT; KCNQ2(Kv7.2)/KCNQ3(Kv7.3) (KCNQ3/KCNQ2, Homo sapiens, UniProt O43525+O43526)

`CCCCCCCCCC1NCCc2cc(O)c(O)cc21` (centres unmarked) has an inhibition of 1.76 ± 3.99% (tyrosinase; enzyme activity, inhibitor; 100 µM, with: levodopa).
`C=CCNc1ncnc2ccc(Br)cc12` gave an inhibition of 0% (Genome polyprotein NS3 helicase domain; DNA binding, inhibitor; hepatitis C virus; 100 µM, with: Cy5-dT15 DNA).
For `O=C(O)CCN1C(=O)C(=Cc2ccc(F)cc2)SC1=S`, inhibition read “no inhibition” (PPIA (Homo sapiens, UniProt P62937); isomerase activity, inhibitor; 10 µM, enzyme 5 nM, chymotrypsin-coupled, with: N-succinyl-AAPF-p-nitroanilide).
With `NC/C(=C\F)COc1cccc(Cn2c(=S)[nH]c(=O)c3[nH]cnc32)c1` the inhibition was 27.4% (AOC1 (Homo sapiens, UniProt P19801); enzyme activity, inhibitor; 10 µM).
`COc1cc(C2NCCc3cc(O)c(O)cc32)cc(OC)c1O` (centres unmarked) has an inhibition of 15.8 ± 2.98% (tyrosinase; enzyme activity, inhibitor; 100 µM, with: levodopa).
With `Cc1nc(N=Nc2ccc(C(=O)O)cc2)c(COP(=O)(O)O)c(C=O)c1O` the inhibition was 43% (Genome polyprotein NS3 helicase domain; DNA binding, inhibitor; hepatitis C virus; 100 µM, with: Cy5-dT15 DNA).
With `CCN(Cc1ccccc1C(F)(F)F)C(=O)C1CCN(S(=O)(=O)c2ccc3[nH]ncc3c2)CC1` the inhibition was 5% (human KATP potassium channel; radioligand binding; 10 µM).
The inhibition of `Clc1cncc(OC[C@@H]2CN(CCN3CCc4ccccc43)CCO2)c1` is reported as -8.3% (DRD3; radioligand binding; concentration not given, with: [3H]N-methylspiperone).
For `CN(C(=O)n1cnc(-c2ccc[n+]([O-])c2)c1)C1CCCCC1`, the inhibition was 16.5% (EDNRB (Homo sapiens, UniProt P24530); 10 µM).
With `CC[C@@H]1[C@H](F)C(=O)N[C@@H]1COc1nccc2cc(C(N)=O)c(OC)cc12` the inhibition was 0.7% (MAP2K4 (Homo sapiens, UniProt P45985); ATP-site probe binding, ActivX profiling; THP-1 cell lysate; 0.2 mM, Lys1 site).
`O=C(Nc1cccc2c(=O)cc(-c3nnn[nH]3)oc12)c1ccc(OCCCCc2ccccc2)cc1` gave an inhibition of 11.1% and 16% and -4.27% and 6.74% and 2.47% and 6.73% (LRRC8A/LRRC8C (Homo sapiens, UniProt Q8IWT6+Q8TDW0, L134K/L136K); ion current, whole-cell patch clamp; LRRC8-/- HCT cells; 0.1 µM, L134K/L136K mutant, +100 mV).
The inhibition of `COc1ccc(CN2C[C@](C)(O)[C@@H]3C[C@H]2[C@@H](C)c2nc4ccccc4c(-c4ccccc4)c23)cc1` is reported as 0% (OPRK1 (Cavia porcellus, UniProt P41144); binding, radioligand binding; guinea pig brain; 1 µM, with: [3H]U-69,593).
With `CCCCCCCCCCCCCCCC1NCCc2cc(O)c(O)cc21` (centres unmarked) the inhibition was 0.37 ± 2.42% (tyrosinase; enzyme activity, inhibitor; 100 µM, with: levodopa).
The inhibition of `N[C@@H](Cc1cnc[nH]1)C(=O)O` is reported as 57.5% (Cationic amino acid transporter 8 (NPT1, Plasmodium vivax, UniProt A5K9W3); 100 µM).
`COc1ccc(F)cc1C(=O)NCc1ccc(-c2nn([C@@H](C)C(F)(F)F)c(N)c2C(N)=O)cc1` has an inhibition of over 90% (BTK (Homo sapiens, UniProt Q06187); probe binding, competitive chemoproteomics; human PBMCs; 10 µM).
The inhibition of `Cc1cc(-c2ccnc3[nH]cc(F)c23)cc(F)c1[C@@]1(O)[C@H](C)CN(C2CCS(=O)(=O)CC2)C[C@@H]1C` is reported as 46.7% (CDK11 and CDK8; ATP probe binding, KiNativ, refers to: Lys2 site; HEK293T cell lysate; 1 µM).
`CC(N)(Cc1ccc(O)c(O)c1)C(=O)O` (racemic) gave an inhibition of 0% (Genome polyprotein NS3 helicase domain; DNA binding, inhibitor; hepatitis C virus; 100 µM, with: Cy5-dT15 DNA).
`CCNCc1cnn(-c2ccc(-n3ccc(Cl)c(Cl)c3=O)cc2)c1C(F)(F)F` — result for inhibition: “no inhibition” (Trpa1 (Mus musculus, UniProt Q8BLA8); ion current, inhibitor, whole-cell patch clamp; 10 µM, with: AITC-activated).
With `[2H]c1cc(C)c(NC(=O)c2cnc(Nc3cc(N4CCCCC4)nc(C)n3)s2)c(Cl)c1` the inhibition was under 30% (FGFR2 (Homo sapiens, UniProt P21802); 0.01 µM).
The inhibition of `COc1ccc(-n2nc(OCCCN3CCCCC3)ccc2=O)cc1` is reported as 16 ± 2.02% (alpha1 adrenergic receptor; radioligand binding; 1.0 µM).
`CCCCCCCCCCCCCCC[C@H](O)[C@H](N)CO` (racemic) gave an inhibition of 4% (Genome polyprotein NS3 helicase domain; DNA binding, inhibitor; hepatitis C virus; 100 µM, with: Cy5-dT15 DNA).
For `CC12CC3CC(C)(C1)CC(N)(C3)C2`, the inhibition was 23% (Glutamate receptor 2; ion current, negative allosteric modulator, SyncroPatch patch clamp; HEK293; 30 µM).
`O=C(NO)c1ccc(CN2CCCCc3ccccc32)c(F)c1` gave an inhibition of 18.4% (DRD3; radioligand binding, radioligand displacement; 10 µM).
The inhibition of `Cl.O=C(CCCCCN1CCN(c2ccccc2-c2ccccc2)CC1)NC1CCCc2ccccc21` (centres unmarked) is reported as 0% (Genome polyprotein NS3 helicase domain; DNA binding, inhibitor; hepatitis C virus; 100 µM, with: Cy5-dT15 DNA).
`Cn1cc(-n2cnc3c(NCc4nc5cc(Cl)c(Cl)cc5[nH]4)nc(N4CCOCC4)nc32)cn1` has an inhibition of 23.8% (Cyclin-dependent kinase 12, with cyclin K (CDK12, Homo sapiens, UniProt Q9NYV4); kinase activity, inhibitor, ADP-Glo; 0.0247 µM).
`CC(C)NCC(O)COc1cccc2ccccc12` (centres unmarked) gave an inhibition of 9% (KCNQ3/KCNQ2; ion current, antagonist, SyncroPatch patch clamp; HEK293; 3 µM).
For `c1cncc(OC[C@@H]2CN(CCN3CCc4ccccc43)CCO2)c1`, the inhibition was 26.9% (DRD3; radioligand binding; concentration not given, with: [3H]N-methylspiperone).
The inhibition of `O=C1NC(=O)C(c2ccccc2)(c2ccccc2)N1` is reported as 0% (KCNQ3/KCNQ2; ion current, antagonist, SyncroPatch patch clamp; HEK293; 3 µM).
With `Cc1ncccc1OC[C@@H]1CN(CCN2CCc3ccccc32)CCO1` the inhibition was 11.7% (DRD3; radioligand binding; concentration not given, with: [3H]N-methylspiperone).
`O=C(O)CN(CCN(CC(=O)O)CC(=O)O)CC(=O)O` has an inhibition of 38.8% (Hydroxyacylglutathione hydrolase, mitochondrial (Homo sapiens, UniProt Q16775); glyoxylase II activity; 100 µM).
The inhibition of `CN(C)C1CCN(CC#Cc2nn(C3CCCC3)c3nc(NCc4ccccc4)ncc23)C1` (centres unmarked) is reported as -3% (TAOK2 (Homo sapiens, UniProt Q9UL54); enzyme activity, inhibitor, Z'-LYTE; 100 nM).
`O=C1CN(CC[C@@H](CO)NCc2c[nH]c3c(O)nc(O)nc23)S(=O)(=O)N1`: inhibition “inactive” (Hypoxanthine-guanine-xanthine phosphoribosyltransferase (Plasmodium falciparum, UniProt P20035); enzyme activity, inhibitor, coupled IMPDH; up to 100 µM).
The inhibition of `C[C@@H]1C(=O)NC2=Nc3cccc(Cl)c3CN21` is reported as 0% (Genome polyprotein NS3 helicase domain; DNA binding, inhibitor; hepatitis C virus; 100 µM, with: Cy5-dT15 DNA).
`O=C(CN1CCO[C@@H](COc2cccnc2)C1)N1CCc2ccccc21` has an inhibition of 27.6% (DRD3; radioligand binding; concentration not given, with: [3H]N-methylspiperone).
`Cn1c(=O)c2[nH]cnc2n(C)c1=O` gave an inhibition of -19% (KCNQ3/KCNQ2; ion current, antagonist, SyncroPatch patch clamp; HEK293; 30 µM).
`Cc1ccc2nc(CN(CCN(Cc3nc4ccc(C)cc4[nH]3)Cc3nc4ccc(C)cc4[nH]3)Cc3nc4ccc(C)cc4[nH]3)[nH]c2c1` gave an inhibition of 0% (Genome polyprotein NS3 helicase domain; DNA binding, inhibitor; hepatitis C virus; 100 µM, with: Cy5-dT15 DNA).
The inhibition of `Nc1c(Br)cc(Br)cc1CN[C@H]1CC[C@H](O)CC1` is reported as 24% (Glutamate receptor 2; ion current, negative allosteric modulator, SyncroPatch patch clamp; HEK293; 10 µM).
With `Cc1ccnc(C)c1OC[C@H]1CN(CCN2CCc3ccccc32)CCO1` the inhibition was 4.7% (DRD3; radioligand binding; concentration not given, with: [3H]N-methylspiperone).
The inhibition of `CNc1cccc2cc(C(=O)Nc3ccc(C(=O)O)cc3)c(=O)[nH]c12` is reported as 20% (Protein kinase C beta type, beta-I isoform (PRKCB, Homo sapiens, UniProt P05771); 10 µM).
The inhibition of `CS(=O)(=O)CCNCc1ccc(-c2ccc3ncnc(Nc4ccc(OCc5cccc(F)c5)c(Cl)c4)c3c2)o1` is reported as about 45% (Insulin-like receptor (daf-2, Caenorhabditis elegans, UniProt Q968Y9); inhibitor, radiometric phosphocellulose; 10 µM, with: ATP 0.2 mM).
`CN1CCN(c2cc(-c3ccncc3)c(-c3ccc4ccccc4c3)nn2)CC1` has an inhibition of -26% (EDNRA (Homo sapiens, UniProt P25101); antagonist, FLIPR; 10 µM).
For `CC(C)c1noc2ncc(C(=O)c3ccccc3O)cc12`, the inhibition was 2.5% and 7.7% and 11% and 9.1% (Asic1 (Rattus norvegicus, UniProt P55926); ion current, inhibitor, whole-cell patch clamp; 10 µM).
`Oc1ccc2ccccc2c1SSc1c(O)ccc2ccccc12` has an inhibition of 3% (Genome polyprotein NS3 helicase domain; DNA binding, inhibitor; hepatitis C virus; 100 µM, with: Cy5-dT15 DNA).
For `COc1cc(Cl)c(C(=O)N[C@@H](CN[C@H]2CC[C@@H](N)CC2)Cc2ccc(C#N)cc2)cc1-c1ccc(CN[C@H](C)c2ccc(C)cc2)o1`, the inhibition was -4% (ADORA2B (Homo sapiens, UniProt P29275); agonist response, antagonist; human cells; 10 µM, A2B antagonist).

A few entries again:
`CCCCCCCCCCCCCCC[C@H](O)[C@H](N)CO` (racemic) gave an inhibition of 4% (Genome polyprotein NS3 helicase domain; DNA binding, inhibitor; hepatitis C virus; 100 µM, with: Cy5-dT15 DNA).
The inhibition of `Cl.O=C(CCCCCN1CCN(c2ccccc2-c2ccccc2)CC1)NC1CCCc2ccccc21` (centres unmarked) is reported as 0% (Genome polyprotein NS3 helicase domain; DNA binding, inhibitor; hepatitis C virus; 100 µM, with: Cy5-dT15 DNA).
With `Cc1ncccc1OC[C@@H]1CN(CCN2CCc3ccccc32)CCO1` the inhibition was 11.7% (DRD3; radioligand binding; concentration not given, with: [3H]N-methylspiperone).
With `[2H]c1cc(C)c(NC(=O)c2cnc(Nc3cc(N4CCCCC4)nc(C)n3)s2)c(Cl)c1` the inhibition was under 30% (FGFR2 (Homo sapiens, UniProt P21802); 0.01 µM).
The inhibition of `COc1ccc(CN2C[C@](C)(O)[C@@H]3C[C@H]2[C@@H](C)c2nc4ccccc4c(-c4ccccc4)c23)cc1` is reported as 0% (OPRK1 (Cavia porcellus, UniProt P41144); binding, radioligand binding; guinea pig brain; 1 µM, with: [3H]U-69,593).
